# Published values from different studies.
# Protocols differ between the studies behind these lines.
# T1: G-quadruplex DNA (Homo sapiens); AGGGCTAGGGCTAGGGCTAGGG
# T2: RNA riboswitch (Geobacter sulfurreducens); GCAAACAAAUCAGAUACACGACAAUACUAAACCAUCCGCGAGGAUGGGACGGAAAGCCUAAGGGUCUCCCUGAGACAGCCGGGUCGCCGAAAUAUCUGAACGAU
# T3: RNA aptamer; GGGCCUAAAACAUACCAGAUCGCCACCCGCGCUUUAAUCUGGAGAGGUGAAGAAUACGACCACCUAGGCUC
# T4: RNA hairpin; CGCGAAAGCG
# T5: G-quadruplex DNA, dimeric G-quadruplex; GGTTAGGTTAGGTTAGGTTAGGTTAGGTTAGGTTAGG
# T6: RNA riboswitch U13C; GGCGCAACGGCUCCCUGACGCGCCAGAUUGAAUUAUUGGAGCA
# T7: tetracycline RNA aptamer A55G; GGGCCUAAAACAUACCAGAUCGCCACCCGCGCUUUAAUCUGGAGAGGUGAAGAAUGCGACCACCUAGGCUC
# T8: G-quadruplex DNA (Homo sapiens); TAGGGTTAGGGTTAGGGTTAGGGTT
# T9: RNA aptamer; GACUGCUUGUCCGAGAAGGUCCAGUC
# T10: RNA riboswitch (Lactobacillus rhamnosus); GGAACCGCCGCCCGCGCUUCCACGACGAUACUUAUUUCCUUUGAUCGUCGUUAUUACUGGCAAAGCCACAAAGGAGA
# T11: RNA aptamer, tobramycin-binding; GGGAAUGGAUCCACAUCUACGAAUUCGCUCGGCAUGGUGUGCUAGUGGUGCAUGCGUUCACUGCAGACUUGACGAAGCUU
Compound,target,assay,setting,Kd
C[n+]1ccc(/C=N/NC(=O)c2cncc(C(=O)N/N=C/c3cc[n+](C)c4ccccc34)n2)c2ccccc21,"T1, G-quadruplex DNA (Homo sapiens)",Cy5 fluorescence quenching titration,"pH 7.2, KCl 100 mM",19.1 nM
Nc1nc2c(ncn2[C@@H]2O[C@@H]3COP(=O)(O)O[C@H]4[C@@H](O)[C@H](n5cnc6c(N)ncnc65)O[C@@H]4COP(=O)(O)O[C@H]3[C@H]2N)c(=O)[nH]1,"T2, RNA riboswitch (Geobacter sulfurreducens)",competition gel shift,"Mg2+ 10 mM, added: 32P c-AMP-GMP",9 nM
C[C@@]1(O)c2cccc(O)c2-c2n[nH]c3c2[C@@H]1C[C@H]1CC(O)=C(C(N)=O)C(=O)[C@@]31O,"T3, RNA aptamer",fluorescence titration,"pH 7.5, 25 °C, MgCl2 10 mM",0.46 nM
Nc1nc2c(ncn2[C@@H]2O[C@@H]3CO[P@@](O)(=S)O[C@H]4[C@@H](O)[C@H](n5cnc6c(N)ncnc65)O[C@@H]4CO[P@](O)(=S)O[C@H]3[C@H]2O)c(=O)[nH]1,"T2, RNA riboswitch (Geobacter sulfurreducens)",competition gel shift,"Mg2+ 10 mM, added: 32P c-AMP-GMP",360 nM
Nc1ccc(-c2cc3ccc(C4=NCCN4)cc3[nH]2)cc1,"T4, RNA hairpin",fluorescence titration,"1000 nM, pH 7.0",> 200000 nM
Cc1ccc(Cn2cc3c(-c4ccc5c(c4)OCO5)nnc-3c3cc4c(cc32)OCO4)cc1,"T5, G-quadruplex DNA, dimeric G-quadruplex",fluorescence titration,KCl 100 mM,1460 nM
Nc1nc2c(ncn2[C@@H]2O[C@@H]3COP(=O)(O)O[C@H]4[C@@H](N)[C@H](n5cnc6c(N)ncnc65)O[C@@H]4COP(=O)(O)O[C@H]3[C@H]2O)c(=O)[nH]1,"T2, RNA riboswitch (Geobacter sulfurreducens)",competition gel shift,"Mg2+ 10 mM, added: 32P c-AMP-GMP",21 nM
C[S+](CC[C@H](N)C(=O)O)C[C@H]1O[C@@H](n2cnc3c(N)ncnc32)[C@H](O)[C@@H]1O (stereo partly shown),"T6, RNA riboswitch U13C",ITC,"KCl 50 mM, one-site model",18000 nM
CN(C)[C@@H]1C(=O)C(C(N)=O)=C(O)[C@@]2(O)C(=O)C3=C(O)c4c(O)cccc4[C@@](C)(O)[C@H]3C[C@@H]12,"T7, tetracycline RNA aptamer A55G",fluorescence titration,"pH 7.5, 25 °C, MgCl2 10 mM",1.69 nM
C[n+]1cccc2cc(/C=N/NC(=O)c3ccc4ccc5ccc(C(=O)N/N=C/c6ccc7c(ccc[n+]7C)c6)nc5c4n3)ccc21,"T8, G-quadruplex DNA (Homo sapiens)",Cy5 fluorescence quenching titration,"pH 7.2, KCl 100 mM, first transition",9.2 nM
NC[C@@H]1O[C@H](O[C@H]2[C@@H](O)[C@H](O[C@@H]3[C@@H](O)[C@H](N)C[C@H](N)[C@H]3O[C@H]3O[C@H](CN)[C@@H](O)[C@H](O)[C@H]3N)O[C@@H]2CO)[C@H](N)[C@@H](O)[C@@H]1O,"T9, RNA aptamer",ITC,NaCl 200 mM,9.5 nM
NCc1c[nH]c2nc(N)[nH]c(=O)c12,"T10, RNA riboswitch (Lactobacillus rhamnosus)",ITC,"pH 7.0, NaCl 0.10 M",17.9 nM
CN[C@@H]1[C@H](O[C@H]2[C@H](O[C@H]3[C@H](O)[C@@H](O)[C@H](N=C(N)N)[C@@H](O)[C@@H]3N=C(N)N)O[C@@H](C)[C@]2(O)C=NNC(=O)CCOCCOCCOCCOCCNC(=O)CCCC[C@@H]2SC[C@@H]3NC(=O)N[C@@H]32)O[C@@H](CO)[C@H](O)[C@H]1O,"T11, RNA aptamer, tobramycin-binding",SPR,apparent,9.68 nM

# Excerpt of the above:
Compound,target,assay,setting,Kd
NC[C@@H]1O[C@H](O[C@H]2[C@@H](O)[C@H](O[C@@H]3[C@@H](O)[C@H](N)C[C@H](N)[C@H]3O[C@H]3O[C@H](CN)[C@@H](O)[C@H](O)[C@H]3N)O[C@@H]2CO)[C@H](N)[C@@H](O)[C@@H]1O,"T9, RNA aptamer",ITC,NaCl 200 mM,9.5 nM
